Measurements pooled from the literature.
Each line is one published result; not all experiments were run side by side. Numbers after ± are the reported error.
PHO4: PHO4 1-312 (Saccharomyces cerevisiae, UniProt P07270)
MECP2: MECP2 1-486 (Homo sapiens, UniProt P51608)
U2AF2: U2AF2 148-342 (Homo sapiens, UniProt P26368)
CIN5 full length assumed: CIN5 full length assumed (Saccharomyces cerevisiae, UniProt P40917)
SPT15 full length assumed: SPT15 full length assumed (Saccharomyces cerevisiae, UniProt P13393)
CBF1: CBF1 1-351 (Saccharomyces cerevisiae, UniProt P17106)
GATA1: GATA1 200-319 (Homo sapiens, UniProt P15976)
nac full length assumed: nac full length assumed (Escherichia coli, UniProt Q47005)
glnG full length assumed: glnG full length assumed (Escherichia coli, UniProt P0AFB8)
SUA7 full length assumed: SUA7 full length assumed (Saccharomyces cerevisiae, UniProt P29055)
PARP1: PARP1 1-1014 (Homo sapiens, UniProt P09874)
pdhR full length assumed: pdhR full length assumed (Escherichia coli, UniProt P0ACL9)
PHO4 full length assumed: PHO4 full length assumed (Saccharomyces cerevisiae, UniProt P07270)

| Sequence | target | assay | test system | conditions | Kd |
| --- | --- | --- | --- | --- | --- |
| CAATACACTGTTATCTGACACACGTGTCGAGCTACTCGTTCGGTTATCCGGCGGTATGAC (dsDNA) | PHO4 | MITOMI | double-stranded DNA, one strand shown | not purified | 153 ± 4 nM |
| CGGCAGGACGUACAUCCCUCCCGGCUCCCCUCCCGCUGGCCUGCCG (RNA; extended stem-loop) | MECP2 | fluorescence polarization | folded RNA | Hill coefficient 1.70 | 1.44 ± 0.01 nM |
| AGUUUAGUU (ssRNA) | U2AF2 | sequencing of bound RNA | RNA | motif only | 3740 nM |
| CGCTTCAATGTTTGAATGTTTTAATTAATTACACAATTACAGAATTACATAATTACTCCGGCGGTATGAC (dsDNA) | CIN5 full length assumed | MITOMI | double-stranded DNA, one strand shown | not purified | 240 ± 20 nM |
| UUCAGAGGA (ssRNA) | SRSF1 1-196 (Homo sapiens, UniProt Q07955) | fluorescence polarization | RNA |  | 104 ± 3 nM |
| GCAGCCCTGGTTAAAAACAAGGTTTATAAATATTGGTTTAAAAGCAGGTTAAAAGACAGGTTAGCGGTGG (ssDNA) | trfA 98-382 G254D/S267L (Escherichia coli, UniProt P07676) | SPR | single-stranded DNA |  | 50.9 nM |
| CAATACACTGTTATCAGGCACACGTGTCGAGCTACTCGTTCGGTTATCCGGCGGTATGAC (dsDNA) | PHO4 | MITOMI | double-stranded DNA, one strand shown | not purified | 135 ± 3 nM |
| TCCTGAAGGGGCGACCTAGCTTGGTCCTATCGTCGTCAAGTCAATCGGTCC (dsDNA; 5'-amino-C6 primer) | SPT15 full length assumed | array | double-stranded DNA, one strand shown | TBP alone | 2.45 ± 0.23 nM |
| GGTAACTTAGCGTCTCGTTGTGAGTAATTTTGACAAGGAATGGAATGCGATGCGCATAACG (dsDNA) | ulaR full length assumed (Escherichia coli, UniProt P0A9W0) | BLI | double-stranded DNA, one strand shown |  | 40.8 nM |
| GUUAUUUUU (ssRNA) | U2AF2 | sequencing of bound RNA | RNA | motif only | 1170 nM |
| GAAGA (ssRNA) | SART3 697-786 (Homo sapiens, UniProt Q15020) | ITC | RNA |  | 2600 ± 500 nM |
| CAATACACTGTTATCATACACACGTGTCGAGCTACTCGTTCGGTTATCCGGCGGTATGAC (dsDNA) | CBF1 | MITOMI | double-stranded DNA, one strand shown | not purified | 237 ± 15 nM |
| CCAGGCAGAUAAGGAACAAC (ssRNA) | GATA1 | fluorescence anisotropy | RNA |  | 80 ± 20 nM |
| CGCCAATTATGGAATTATGTAATTATTCAATTATTGAATTATTTAATTCACCAATCTCCGGCGGTATGAC (dsDNA) | CIN5 full length assumed | MITOMI | double-stranded DNA, one strand shown | not purified | 460 ± 40 nM |
| AAACAUUUU (ssRNA) | U2AF2 | sequencing of bound RNA | RNA | motif only | 3460 nM |
| GCGGATGAAGACTGGTGTCGGGGAGGGTGGGAGGGGGAGGTAGGTCGGGGTATGATCGGCCCTAAATACGAGCAAC (ssDNA; single-stranded) | Superoxide dismutase [Cu-Zn] 1-154 (Botrytis cinerea, UniProt A0A384JBV7) | ELONA | folded DNA |  | 1.09 ± 0.28 nM |
| AGATCTCCATCCTTGGGATATGGCTACCAGAAAGTAAAGGGACGATACAAGTCAAGTGAGA (dsDNA) | nac full length assumed | BLI | double-stranded DNA, one strand shown |  | 1660 nM |
| CAATACACTGTTATCAGAAACACGTGTCGAGCTACTCGTTCGGTTATCCGGCGGTATGAC (dsDNA) | CBF1 | MITOMI | double-stranded DNA, one strand shown | not purified | 110 ± 5 nM |
| AGCGTCACAGACATGAAATTGGTAAGACCAATTGACTTCGGCAAGTGGCTTAAGACAGGAA (dsDNA) | glnG full length assumed | BLI | double-stranded DNA, one strand shown |  | 11000 nM |

| Sequence | target | assay | test system | conditions | Kd |
| --- | --- | --- | --- | --- | --- |
| AUUCUUCUC (ssRNA) | U2AF2 | sequencing of bound RNA | RNA | motif only | 3460 nM |
| RNA 1 GCAGUAGGGUGAGGGUGUUGGCAGGGAGCGCCCUCCCCCAUAGUGU / RNA 2 ACACUAUGGGGGAGGGCGCUCCCUGCCAACACCCUCACCCUACUGC (dsRNA) | MECP2 | fluorescence polarization | double-stranded RNA | Hill coefficient 0.70 | 14.8 ± 1.5 nM |
| CAATACACTGTTATCGGACACACGTGTCGAGCTACTCGTTCGGTTATCCGGCGGTATGAC (dsDNA) | PHO4 | MITOMI | double-stranded DNA, one strand shown | not purified | 139 ± 3 nM |
| AUUCUAUUU (ssRNA) | U2AF2 | sequencing of bound RNA | RNA | motif only | 670 nM |
| CAATACACTGTTATCAGACACACGTGTCGCGCTACTCGTTCGGTTATCCGGCGGTATGAC (dsDNA) | PHO4 | MITOMI | double-stranded DNA, one strand shown | not purified | 143 ± 4 nM |
| ACUUUUUUU (ssRNA) | U2AF2 | sequencing of bound RNA | RNA | motif only | 1140 nM |
| TCCTGAAGGGGCACCCTAGCTTGGTCCTATCGTCGTCAAGTCAATCGGTCC (dsDNA; 5'-amino-C6 primer) | SUA7 full length assumed | array | double-stranded DNA, one strand shown | TFIIB alone | 2.45 ± 0.77 nM |
| TTTGCGTGGGCTGTGGTGCTTT (ssDNA) | traI 381-858 (Escherichia coli, UniProt P14565) | fluorescence titration | single-stranded DNA |  | 38.6 ± 5 nM |
| CTCAGGAATTCCTGTAAAGTAATGTGGAGCTCAGTTCAAGTCAATCGGTCC (dsDNA; 5'-amino-C6 primer) | SPT15 full length assumed | array | double-stranded DNA, one strand shown | TBP alone | 30.8 ± 3.16 nM |
| RNA 1 GCGGUGUAUAGCCUAAUCUUUACCGC / RNA 2 GCGGUAAAGAUUAGGCUAUACACCGC (dsRNA) | PARP1 | fluorescence polarization | double-stranded RNA | Hill coefficient 1.24 | 388 ± 36 nM |
| DNA AGAGTGCGACACCTGATTCC / RNA GGAAUCAGGUGUCGCACUCU (DNA:RNA) | RNase HIII tandem 1-81 domains L52M (Geobacillus stearothermophilus, UniProt Q6L6Q4) | fluorescence anisotropy | DNA-RNA hybrid |  | 91 ± 10 nM |
| CCTGCGGTATTGACACTTGAGGGGCGCGACTACTGACAGATGAGGGGCGCGATCCTTGACACTTGAGGGGCAGAGTGATGACAGATGAGGGGCGCACCTATTGACATTTGAGGGGCTGTCCACAGGCAG (dsDNA) | trfA 98-382 G254D/S267L/R156E (Escherichia coli, UniProt P07676) | SPR | double-stranded DNA, one strand shown |  | 21.8 nM |
| ATGGCGGGCTATGATCCTAT (dsDNA) | SUB1 full length assumed (Homo sapiens, UniProt P53999) | fluorescence anisotropy | double-stranded DNA, one strand shown |  | 24 ± 17 nM |
| CTGAAGGGGGGGCTATAAAAGGGGGTGGGGGCTCCTCAAGTCAATCGGTCC (dsDNA; 5'-amino-C6 primer) | SPT15 full length assumed | array | double-stranded DNA, one strand shown | TBP alone | 1.92 ± 0.12 nM |
| ACAGGGGTGTGGGCACAGGGGTGTGGGC (G-quadruplex DNA (Homo sapiens); intramolecular G4) | IGF2 fragment (Homo sapiens) | SPR | folded DNA | together with: IGF-2 0.1-100 pM | 3 nM |
| CAATACACTGTTATCAGACACACGTGTCTAGCTACTCGTTCGGTTATCCGGCGGTATGAC (dsDNA) | CBF1 | MITOMI | double-stranded DNA, one strand shown | not purified | 168 ± 8 nM |
| CGCTGATCACGTGATGACGTGATTACGTGCAGACGTGCATACGTGCCCACGTGCCCTCCGGCGGTATGAC (dsDNA) | CBF1 full length assumed (Saccharomyces cerevisiae, UniProt P17106) | MITOMI | double-stranded DNA, one strand shown | not purified | 35 ± 3 nM |
| AGCGTCACAGACATGAAATTGGTCAGACCAATTGACCTCGGCAAGTGGCTTAAGACAGGAA (dsDNA) | pdhR full length assumed | BLI | double-stranded DNA, one strand shown |  | 1.61 nM |
| CTCAGGAATTCCTAGAAAGTAATGTGGAGCTCAGTTCAAGTCAATCGGTCC (dsDNA; 5'-amino-C6 primer) | SPT15 full length assumed | array | double-stranded DNA, one strand shown | TBP alone | 0.96 ± 0.08 nM |

| Sequence | target | assay | test system | conditions | Kd |
| --- | --- | --- | --- | --- | --- |
| GCCTACCGGTTCGCGAACCGGTAGGC (dsDNA; blunt, self-complementary, 5'-phosphate) | PARP1 | fluorescence polarization | double-stranded DNA, one strand shown |  | 0.6 nM |
| CTTGACCAATGC (dsDNA) | BCL11A 737-835 (Homo sapiens, UniProt Q9H165) | ITC | double-stranded DNA, one strand shown |  | 19 ± 4 nM |
| TTCAATGCTCTGTAGGTGTGCAACAAACCTGGCGTGCACCATGATGATCATTCCATCAGGT (dsDNA) | glnG full length assumed | BLI | double-stranded DNA, one strand shown |  | 104 nM |
| CCAGGCAGATAAGGAACAAC (ssDNA) | GATA1 | fluorescence anisotropy | single-stranded DNA |  | < 1900 nM |
| CGCGGGCACATGGGGACATGGGTACATGGTCACATGGTGACATGGTTACATGTAGCTCCGGCGGTATGAC (dsDNA) | PHO4 full length assumed | MITOMI | double-stranded DNA, one strand shown | not purified | 410 ± 30 nM |
| TGGATATCTAGGGGCGCTATGATATCT (dsDNA) | DNMT3A fragment (Homo sapiens) | fluorescence polarization | double-stranded DNA, one strand shown |  | 1000 ± 100 nM |
| GTAAAGTAGGAACGGTATTAATAGAAATGATACTAAAGTACGAAATAATAAACTGGAATTT (dsDNA) | pdhR full length assumed | BLI | double-stranded DNA, one strand shown |  | 3720 nM |
| CUUCUAUCU (ssRNA) | U2AF2 | sequencing of bound RNA | RNA | motif only | 16600 nM |
| TCCTAGTGTCCACCAAATTCCTCAGCGCTCGCTCACCCTCCTCTACGGCCACGACTCTGGGAGTG (dsDNA) | TDG 1-410 (Homo sapiens, UniProt Q13569) | EMSA | double-stranded DNA, one strand shown |  | 49 nM |
| TCCTGAAGGAGCGCCCTAGCTTGGTCCTATCGTCGTCAAGTCAATCGGTCC (dsDNA; 5'-amino-C6 primer) | SPT15 full length assumed | array | double-stranded DNA, one strand shown | TBP alone | 17.7 ± 0.99 nM |
| CGCTATTTACGTCACTACGTCAGCACGTCAGGACGTCAGTACGTCATCACGTCATCTCCGGCGGTATGAC (dsDNA) | PHO4 full length assumed | MITOMI | double-stranded DNA, one strand shown | not purified | 2100 ± 300 nM |
| GGTAACTTAGCGTCTCGTTGTGATTAAGTTTGACGAGGAATGGAATGCGATGCGCATAACG (dsDNA) | pdhR full length assumed | BLI | double-stranded DNA, one strand shown |  | 2060 nM |
| AACUUAUAU (ssRNA) | U2AF2 | sequencing of bound RNA | RNA | motif only | 3810 nM |
| TGGATCAATCGTATAAAGAGAATTCCTGGTATGGATCAAGTCAATCGGTCC (dsDNA; 5'-amino-C6 primer) | SUA7 full length assumed | array | double-stranded DNA, one strand shown | TFIIB alone | 3.48 ± 1.51 nM |
| CATTCGCAACCTATAAGTAAATCCAATGGAACTCATCATAAATGAGACTTTTACCTTATGA (dsDNA) | nac full length assumed | BLI | double-stranded DNA, one strand shown |  | 3.31 nM |
| CAATACACTGTTATCAGACACACGTGTCCAGCTACTCGTTCGGTTATCCGGCGGTATGAC (dsDNA) | PHO4 | MITOMI | double-stranded DNA, one strand shown | not purified | 117 ± 3 nM |
| GAATTCCTAAAAAGTAATGTGGAGCTCCGTTCGTCTCAAGTCAATCGGTCC (dsDNA; 5'-amino-C6 primer) | SPT15 full length assumed | array | double-stranded DNA, one strand shown | TBP alone | 31.9 ± 2.66 nM |
| GCGGUGUAUAGCCUAAUCUUUACCGC (structured RNA) | MECP2 | fluorescence polarization | folded RNA | Hill coefficient 0.64 | 26.8 ± 3.6 nM |
